Measured values gathered from unrelated publications.
A part holds a random share of what one study measured.
Sequence of UniProt P10721 (whole entry, unmodified, looked up): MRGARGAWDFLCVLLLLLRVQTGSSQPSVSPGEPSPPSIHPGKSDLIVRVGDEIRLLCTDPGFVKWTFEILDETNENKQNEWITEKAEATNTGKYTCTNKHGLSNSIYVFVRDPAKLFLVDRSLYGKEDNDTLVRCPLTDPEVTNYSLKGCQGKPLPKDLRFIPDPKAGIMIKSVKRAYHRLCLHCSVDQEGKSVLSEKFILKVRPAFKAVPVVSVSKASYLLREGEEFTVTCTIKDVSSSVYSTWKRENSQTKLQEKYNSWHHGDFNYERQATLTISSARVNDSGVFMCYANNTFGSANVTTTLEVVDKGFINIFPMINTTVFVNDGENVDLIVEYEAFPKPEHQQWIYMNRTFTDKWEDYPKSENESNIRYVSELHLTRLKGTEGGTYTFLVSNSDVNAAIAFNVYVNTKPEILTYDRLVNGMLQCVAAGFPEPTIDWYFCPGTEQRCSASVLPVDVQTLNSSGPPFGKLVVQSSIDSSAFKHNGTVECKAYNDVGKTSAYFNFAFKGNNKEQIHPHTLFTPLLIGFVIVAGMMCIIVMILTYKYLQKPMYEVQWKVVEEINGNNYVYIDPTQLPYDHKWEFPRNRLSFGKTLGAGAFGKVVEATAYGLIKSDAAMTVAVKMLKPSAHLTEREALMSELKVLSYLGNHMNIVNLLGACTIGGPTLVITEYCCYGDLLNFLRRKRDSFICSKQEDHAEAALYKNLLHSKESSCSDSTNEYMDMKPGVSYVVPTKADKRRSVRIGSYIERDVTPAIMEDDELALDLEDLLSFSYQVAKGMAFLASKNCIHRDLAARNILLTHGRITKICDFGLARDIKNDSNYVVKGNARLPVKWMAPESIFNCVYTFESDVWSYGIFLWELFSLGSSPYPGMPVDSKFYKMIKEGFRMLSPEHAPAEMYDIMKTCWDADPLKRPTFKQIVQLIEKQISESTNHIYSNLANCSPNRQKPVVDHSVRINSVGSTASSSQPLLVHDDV
Sequence of UniProt Q6ZN16 (whole entry, looked up): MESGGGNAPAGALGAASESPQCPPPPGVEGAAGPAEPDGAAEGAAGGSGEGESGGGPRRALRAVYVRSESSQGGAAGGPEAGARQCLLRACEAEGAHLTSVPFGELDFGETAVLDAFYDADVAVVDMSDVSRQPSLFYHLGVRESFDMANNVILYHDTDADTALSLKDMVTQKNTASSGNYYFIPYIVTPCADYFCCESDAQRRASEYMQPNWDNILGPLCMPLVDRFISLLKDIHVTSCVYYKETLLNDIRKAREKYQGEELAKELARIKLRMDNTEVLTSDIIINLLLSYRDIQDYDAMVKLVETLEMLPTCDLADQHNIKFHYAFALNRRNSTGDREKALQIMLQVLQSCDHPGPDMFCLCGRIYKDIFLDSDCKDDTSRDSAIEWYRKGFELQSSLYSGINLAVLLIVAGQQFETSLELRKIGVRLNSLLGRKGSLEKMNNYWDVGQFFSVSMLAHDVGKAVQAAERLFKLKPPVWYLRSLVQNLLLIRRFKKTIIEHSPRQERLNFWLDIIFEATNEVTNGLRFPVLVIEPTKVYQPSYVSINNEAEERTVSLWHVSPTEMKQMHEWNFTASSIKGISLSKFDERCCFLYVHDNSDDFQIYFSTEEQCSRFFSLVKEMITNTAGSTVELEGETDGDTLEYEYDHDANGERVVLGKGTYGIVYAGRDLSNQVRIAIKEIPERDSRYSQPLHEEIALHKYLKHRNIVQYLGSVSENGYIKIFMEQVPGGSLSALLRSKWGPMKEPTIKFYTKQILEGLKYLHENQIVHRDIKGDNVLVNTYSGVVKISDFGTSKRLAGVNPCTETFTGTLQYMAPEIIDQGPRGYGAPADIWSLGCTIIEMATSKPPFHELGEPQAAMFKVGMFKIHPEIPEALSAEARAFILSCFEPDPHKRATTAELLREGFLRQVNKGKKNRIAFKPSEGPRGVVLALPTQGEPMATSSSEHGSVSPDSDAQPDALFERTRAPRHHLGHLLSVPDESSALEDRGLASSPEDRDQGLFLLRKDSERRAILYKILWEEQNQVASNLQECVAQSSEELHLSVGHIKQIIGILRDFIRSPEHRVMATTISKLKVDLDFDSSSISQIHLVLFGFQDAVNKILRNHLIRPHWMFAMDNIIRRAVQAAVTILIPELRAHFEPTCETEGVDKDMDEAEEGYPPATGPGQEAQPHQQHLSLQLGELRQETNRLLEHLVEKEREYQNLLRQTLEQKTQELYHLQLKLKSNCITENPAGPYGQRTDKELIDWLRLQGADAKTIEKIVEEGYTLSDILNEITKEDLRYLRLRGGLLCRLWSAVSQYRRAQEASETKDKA
Sequence of UniProt Q9UK32 (whole entry, looked up): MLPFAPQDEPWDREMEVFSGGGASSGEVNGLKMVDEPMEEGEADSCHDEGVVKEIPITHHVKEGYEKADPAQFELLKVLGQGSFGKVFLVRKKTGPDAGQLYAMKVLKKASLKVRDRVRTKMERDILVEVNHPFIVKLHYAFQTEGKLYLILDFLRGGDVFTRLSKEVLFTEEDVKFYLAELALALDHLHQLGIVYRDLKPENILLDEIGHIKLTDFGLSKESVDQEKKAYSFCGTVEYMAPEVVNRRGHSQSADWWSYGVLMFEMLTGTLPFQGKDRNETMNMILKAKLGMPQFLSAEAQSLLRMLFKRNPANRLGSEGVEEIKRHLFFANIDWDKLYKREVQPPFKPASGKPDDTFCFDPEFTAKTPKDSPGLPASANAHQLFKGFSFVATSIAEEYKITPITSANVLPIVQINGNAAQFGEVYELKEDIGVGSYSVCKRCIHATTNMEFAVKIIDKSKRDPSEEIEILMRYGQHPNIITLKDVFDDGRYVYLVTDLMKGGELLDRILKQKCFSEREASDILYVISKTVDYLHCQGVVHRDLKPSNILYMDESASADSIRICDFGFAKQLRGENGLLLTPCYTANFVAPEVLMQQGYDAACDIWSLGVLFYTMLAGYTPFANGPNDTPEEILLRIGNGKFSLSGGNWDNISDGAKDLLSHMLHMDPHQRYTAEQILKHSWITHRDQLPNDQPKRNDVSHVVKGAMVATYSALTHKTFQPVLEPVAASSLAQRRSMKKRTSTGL
Sequence of UniProt Q13554 (whole entry, looked up): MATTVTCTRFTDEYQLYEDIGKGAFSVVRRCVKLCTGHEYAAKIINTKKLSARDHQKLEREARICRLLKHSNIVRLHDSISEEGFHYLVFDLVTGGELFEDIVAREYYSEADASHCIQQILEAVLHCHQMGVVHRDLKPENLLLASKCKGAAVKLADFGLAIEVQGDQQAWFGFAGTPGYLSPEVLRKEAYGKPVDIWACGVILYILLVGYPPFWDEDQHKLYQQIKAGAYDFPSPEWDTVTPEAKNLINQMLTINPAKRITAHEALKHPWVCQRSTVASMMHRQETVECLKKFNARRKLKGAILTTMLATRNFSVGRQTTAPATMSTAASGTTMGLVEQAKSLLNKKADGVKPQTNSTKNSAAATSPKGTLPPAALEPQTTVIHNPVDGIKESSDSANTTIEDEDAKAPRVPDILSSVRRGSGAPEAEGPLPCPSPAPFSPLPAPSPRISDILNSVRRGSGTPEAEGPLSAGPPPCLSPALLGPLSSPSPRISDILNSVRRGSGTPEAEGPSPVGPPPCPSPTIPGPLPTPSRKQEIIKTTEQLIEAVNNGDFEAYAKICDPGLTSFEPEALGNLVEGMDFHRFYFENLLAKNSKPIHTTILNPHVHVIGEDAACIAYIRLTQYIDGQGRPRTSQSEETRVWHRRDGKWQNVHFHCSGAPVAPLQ
Sequence of UniProt Q14012 (whole entry, looked up): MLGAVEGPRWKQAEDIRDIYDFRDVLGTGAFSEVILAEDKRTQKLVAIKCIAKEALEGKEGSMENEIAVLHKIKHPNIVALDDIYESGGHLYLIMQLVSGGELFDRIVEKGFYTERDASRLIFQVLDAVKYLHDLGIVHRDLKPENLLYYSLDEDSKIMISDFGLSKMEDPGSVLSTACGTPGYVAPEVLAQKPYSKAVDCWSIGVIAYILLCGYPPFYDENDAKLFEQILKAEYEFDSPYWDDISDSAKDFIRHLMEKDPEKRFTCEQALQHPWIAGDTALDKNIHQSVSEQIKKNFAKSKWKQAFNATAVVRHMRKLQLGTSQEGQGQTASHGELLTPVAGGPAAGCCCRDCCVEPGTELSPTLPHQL

Sample 1
SMILES: Cc1c[nH]c2nccc(Oc3c(F)cc(Nc4cc(Cl)nc(N)n4)cc3F)c12
Method: competition with immobilised ligand
Concentration: 0.1 µM
Quantity: remaining binding
MAP4K3 (Homo sapiens, UniProt Q8IVH8); cell-free assay: 91%
BMPR1B (Homo sapiens, UniProt O00238); cell-free assay: 68%
RIPK1 (Homo sapiens, UniProt Q13546); cell-free assay: 100%
CAMK1 (Homo sapiens, UniProt Q14012); cell-free assay: 92%
ERN1 (Homo sapiens, UniProt O75460); cell-free assay: 68%
Tyrosine-protein kinase ABL1, phosphorylated (ABL1, Homo sapiens, UniProt P00519, Y253F); cell-free assay: 81%
ULK2 (Homo sapiens, UniProt Q8IYT8); cell-free assay: 89%
TXK (Homo sapiens, UniProt P42681); binding: 100%
KIT (Homo sapiens, UniProt P10721, D816V); cell-free assay: 100%
EPHA2 (Homo sapiens, UniProt P29317); cell-free assay: 100%
MARK1 (Homo sapiens, UniProt Q9P0L2); cell-free assay: 82%
NUAK1 (Homo sapiens, UniProt O60285); cell-free assay: 91%
BMX (Homo sapiens, UniProt P51813); cell-free assay: 100%
WNK4 (Homo sapiens, UniProt Q96J92); cell-free assay: 100%
PTK2 (Homo sapiens, UniProt Q05397); cell-free assay: 100%
GRK1 (Homo sapiens, UniProt Q15835); cell-free assay: 82%
GRK2 (Homo sapiens, UniProt P25098); cell-free assay: 98%
FLT3 (Homo sapiens, UniProt P36888, D835V); cell-free assay: 90%
KIT (Homo sapiens, UniProt P10721, T670I/V559D); cell-free assay: 83%
CSNK2A2 (Homo sapiens, UniProt P19784); cell-free assay: 86%
BRSK2 (Homo sapiens, UniProt Q8IWQ3); cell-free assay: 92%
MAP3K15 (Homo sapiens, UniProt Q6ZN16); cell-free assay: 94%

Sample 2
SMILES: C=CCc1ccc(O)c(-c2cc(CC=C)ccc2O)c1
Effect on: chloride current
Quantity: normalized current
ANO1 del476-501/R541A: Anoctamin-1 (ANO1, Homo sapiens, UniProt Q5XXA6, del476-501/R541A)
Sequence of UniProt Q5XXA6 (whole entry, unmodified, looked up): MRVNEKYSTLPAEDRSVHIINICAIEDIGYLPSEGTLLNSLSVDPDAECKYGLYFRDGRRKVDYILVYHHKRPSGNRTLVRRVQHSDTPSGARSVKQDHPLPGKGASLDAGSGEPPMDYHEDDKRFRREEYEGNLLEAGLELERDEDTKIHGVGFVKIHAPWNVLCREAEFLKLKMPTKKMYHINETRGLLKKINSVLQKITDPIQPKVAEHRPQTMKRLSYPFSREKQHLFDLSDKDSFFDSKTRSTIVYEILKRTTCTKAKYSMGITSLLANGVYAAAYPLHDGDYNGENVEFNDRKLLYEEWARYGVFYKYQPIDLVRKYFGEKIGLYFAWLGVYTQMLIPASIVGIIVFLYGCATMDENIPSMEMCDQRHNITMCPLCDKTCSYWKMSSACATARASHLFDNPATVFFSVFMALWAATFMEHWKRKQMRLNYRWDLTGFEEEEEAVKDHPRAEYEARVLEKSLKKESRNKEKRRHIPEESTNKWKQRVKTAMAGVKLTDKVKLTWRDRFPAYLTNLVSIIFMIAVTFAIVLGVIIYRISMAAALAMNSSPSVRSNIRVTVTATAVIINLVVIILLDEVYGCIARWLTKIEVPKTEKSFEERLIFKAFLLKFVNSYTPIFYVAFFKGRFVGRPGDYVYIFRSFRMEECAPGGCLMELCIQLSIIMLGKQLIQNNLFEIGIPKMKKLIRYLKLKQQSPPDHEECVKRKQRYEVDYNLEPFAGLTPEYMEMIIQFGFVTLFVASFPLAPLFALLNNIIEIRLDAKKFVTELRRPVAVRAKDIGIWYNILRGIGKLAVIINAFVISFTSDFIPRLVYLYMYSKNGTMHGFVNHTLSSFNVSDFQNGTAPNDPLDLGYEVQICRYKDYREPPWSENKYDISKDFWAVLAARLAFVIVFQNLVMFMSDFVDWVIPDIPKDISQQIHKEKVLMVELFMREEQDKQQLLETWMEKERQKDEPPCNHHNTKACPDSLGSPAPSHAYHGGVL
ANO1 del476-501/E659A/K629A: Anoctamin-1 (ANO1, Homo sapiens, UniProt Q5XXA6, del476-501/E659A/K629A)
human TMEM16A K603A/E623A; inhibitor, inside-out patch clamp; 30 µM, at -80 mV: -0.251
ANO1 del476-501/R541A; inside-out patch clamp; 30 µM, membrane voltage 80 mV: 0.543
Anoctamin-1 (ANO1, Homo sapiens, UniProt Q5XXA6); inhibitor, inside-out patch clamp; 30 µM, wild type at -100 mV: -1.14
ANO1 del476-501/E659A/K629A; inside-out patch clamp; 30 µM, membrane voltage 100 mV: 0.799
Anoctamin-1 (ANO1, Homo sapiens, UniProt Q5XXA6, del476-501/K629A); inhibitor, whole-cell voltage clamp; 3 µM; relative to: untreated: 0.967
TMEM16A (human) K603A/E623A; inside-out patch clamp; 30 µM, membrane voltage 20 mV: 0.0842
ANO1 del476-501/E659A/K629A; inside-out patch clamp; 30 µM, membrane voltage 20 mV: 0.134
ANO1 del476-501/R541A; inside-out patch clamp; 30 µM, membrane voltage 40 mV: 0.245

Sample 3
Host: human
Sample: microsomes or S9
Concentration: 2 µM
Time: 0.5 h
Quantity: remaining compound
CC(C)CN1C(=O)CCC[C@]12CN(Cc1ccnc(N3CCCC3)n1)C[C@H]2c1ccccc1: 0.0326%
Cc1cc(NCc2cc(-c3cnn(C)c3C)no2)c(Cl)cc1F: 19.3%
Cc1nn(C)c(-c2nc(-c3ccc(Br)o3)no2)c1Cl: 6.72%
CCCc1nc(-c2ccc3ccccc3c2)cc2c1sc1ccccc12: 83.6%
O=C(CN(CCc1ccccc1)S(=O)(=O)c1ccc(Cl)cc1)Nc1ccc2c(c1)OCCO2: 7.97%
COc1cc(OC)c(OC)cc1CNC(C)(C)CC(C)(C)C: 81.4%
CCOc1ccc2[nH]c3c(=O)n(CCN(C(C)C)C(C)C)cnc3c2c1: 5.29%
O=c1[nH]c(N2CCCC2)nc2ncc3c(c12)CCC3: 42.7%
CCCc1nnc(-c2cc3ccccc3n2Cc2ccccc2)o1: 39%
Cc1occc1C(=O)N1CCC2(CCc3nnc(C(C)C)n3CC2)CC1: 80.9%
Cc1ccc(CNc2ncc(-c3ccccc3F)c(-c3nccn3C)n2)cc1: 3.74%

Sample 4
Structure (SMILES): Cc1nc(Nc2ncc(C(=O)Nc3c(C)cccc3Cl)s2)cc(N2CCN(CCO)CC2)n1
Effect on: enzyme activity
Mode: inhibitor
Concentration: 0.5 µM
Relative to: control
Quantity: remaining activity
HIPK4 (Homo sapiens, UniProt Q8NE63): 98.4%
EPHB1 (Homo sapiens, UniProt P54762): 4.8%
DYRK3 (Homo sapiens, UniProt O43781): 109%
PRKACG (Homo sapiens, UniProt P22612): 114%
RPS6KA6 (Homo sapiens, UniProt Q9UK32): 101%
CAMK2B (Homo sapiens, UniProt Q13554): 97.3%
MAP4K4 (Homo sapiens, UniProt O95819): 49.2%
EPHA4 (Homo sapiens, UniProt P54764): 1.63%
MAPKAPK3 (Homo sapiens, UniProt Q16644): 101%
PDPK1 (Homo sapiens, UniProt O15530): 94.1%
Cyclin-dependent kinase 6, with cyclin D3 (CDK6, Homo sapiens, UniProt Q00534): 103%

Repeated from above (sample 1):
ULK2 (Homo sapiens, UniProt Q8IYT8); cell-free assay: 89%
GRK2 (Homo sapiens, UniProt P25098); cell-free assay: 98%
NUAK1 (Homo sapiens, UniProt O60285); cell-free assay: 91%
MARK1 (Homo sapiens, UniProt Q9P0L2); cell-free assay: 82%
BRSK2 (Homo sapiens, UniProt Q8IWQ3); cell-free assay: 92%
KIT (Homo sapiens, UniProt P10721, T670I/V559D); cell-free assay: 83%
RIPK1 (Homo sapiens, UniProt Q13546); cell-free assay: 100%
FLT3 (Homo sapiens, UniProt P36888, D835V); cell-free assay: 90%
